# Experimental data collected from several papers.
# Lines come from different studies, so protocols differ. Values joined by “and” are separate records of one study, mostly repeats; a detail may differ. ± marks the error that the study gave.
SMILES,target or system,assay,test system,conditions,scale,endpoint,result
O=C(NS(=O)(=O)c1cccs1)c1cc2ccccc2n1Cc1ccc(Br)c2ccccc12,,,"KM mouse, chronic hyperuricaemia model","dose not given, day 23",,body weight,37 g and 36.4 g and 38.4 g and 39.8 g and 34.4 g and 36.8 g
CC(C)(O)c1ncc([S@](N)(=O)=NC(=O)Nc2c3c(cc4c2CCC4)CCC3)s1,,,healthy human,"oral, 10 mg single dose, capsule formulation",,gastrointestinal adverse events,17%
COc1cc(N2CCN(C(=O)C3CCCN3)CC2)ccc1Nc1ncc(Cl)c(Nc2ccccc2P(C)(C)=O)n1 (stereo not drawn),,,"nude mice, NCI-H3122 xenograft","intraperitoneal, 10 mg/kg every other day, day 1",,body weight,23.9 g and 26.6 g and 22.8 g and 22.5 g and 22.1 g
O=C(Nc1cnccc1-c1ccc([18F])cc1)c1ccnc(NC(=O)C2CC2)c1,,,"mice, transgenic, GSK-3β, early-stage, bone","intravenous, dose not given, 120 min",,SUV,1.5
C=CC(=O)Nc1cc(Nc2nccc(-c3cn(C)c4ccccc34)n2)c(OC)cc1N(C)CCNC,,,"human, dried blood spots","72 h, on ice, high QC level",,remaining compound,70%
O=C(c1cccc(N2Cc3cn(Cc4ccc(F)cc4)nc3C2)c1)N1CCCCC1,,metabolic stability,"human, liver microsomes",,,half-life,18 min
[123I]c1ccc2nc(-c3ccc(-n4ccnn4)nc3)cn2c1,,,"male Wistar rat, bone","intravenous, 4 MBq, 5 min",,tracer uptake,0.503 %ID/g
CN1CCC[C@]1(C)/C=C/S(=O)(=O)NC(=O)Nc1c2c(cc3c1CCC3)CC=C2,,,"human, plasma","oral, 50 mg twice daily of parent drug, metabolite of dosed drug",baseline: day 14 over day 1,AUC(0-24) accumulation ratio,1.6
O=C(c1cccc(N2Cc3cn(Cc4ccc(F)cc4)nc3C2)c1)N1CCNCC1,,metabolic stability,"human, liver microsomes",,,half-life,226 min
C=CC(=O)Nc1cc(Nc2nccc(-c3c[nH]c4ccccc34)n2)c(OC)cc1N(C)CCN(C)C,,storage stability,human plasma,"2 h, -80 °C, MQC level",,recovery,93.3%
O=C(O)CCCCC1(N(CC(=O)O)CC(=O)O)CN(CC(=O)O)CCN(CC(=O)O)C1,,"pH-potentiometry, measured: logK1H",0.15 M NaClO4,25 °C,,protonation constant (log),10.2
COc1ccc2c(c1)CCn1c[n+]3c(c1-2)-c1ccc(OC)cc1CC3,,,"female NSG mice, blood","6 mg/kg, day 14, 5 days per week",,mean corpuscular volume,47.6 ± 0.87 fL
CC1=NN(c2ccccc2)C(=O)/C1=C\c1ccc(-c2cc(C(=O)O)ccc2Cl)o1,,dynamic light scattering,buffer,20 µM,,hydrodynamic radius,3.66 nm
CN1CCC[C@]1(C)/C=C/S(=O)(=O)NC(=O)Nc1c2c(cc3c1CCC3O)CCC2 (stereo partly drawn),,,"human, plasma","oral, 50 mg twice daily of parent drug, day 1, metabolite of dosed drug",,AUC(0-24),488 µg·h/mL
CC[C@H](C)[C@@H](C(=O)N[C@@H](CC(C)C)C(=O)N[C@@H](CO)C(=O)N[C@@H](CO)C(=O)N[C@H](C(=O)N[C@@H](CCC(=O)O)C(=O)N[C@H](C(=O)NCC(=O)N[C@@H](CO)C(=O)N[C@@H](CC(N)=O)C(=O)N[C@H](C(=O)N1C[C@H](O)C[C@H]1C(N)=O)[C@@H](C)O)C(C)C)[C@@H](C)O)N(C)C(=O)[C@H](C)NC(=O)CN(C)C(=O)[C@H](Cc1ccccc1)NC(=O)[C@H](CO)NC(=O)[C@H](CO)NC(=O)[C@H](CCCNC(=N)N)NC(=O)[C@H](CCC(N)=O)NC(=O)[C@H](CC(C)C)NC(=O)[C@H](Cc1ccccc1)NC(=O)[C@H](CCCC(=O)O)NC(=O)[C@H](C)NC(=O)[C@H](CC(C)C)NC(=O)[C@H](CCCNC(=N)N)NC(=O)[C@H](CCC(=O)O)NC(=O)[C@@H](NC(=O)[C@H](C)NC(=O)[C@@H]1CCCCNC(=O)C[C@H](NC(=O)[C@H](CCCNC(=N)N)NC(=O)CC[C@H](NC(=O)CCCCCCCCCCCCCCCCCCC(=O)O)C(=O)O)C(=O)NCC(=O)N[C@@H]([C@@H](C)O)C(=O)N[C@@H](C)C(=O)N[C@@H]([C@@H](C)O)C(=O)N1)[C@@H](C)O,,DLS,"phosphate buffer, propylene glycol, mannitol, NaCl","pH 6.1, 25 °C",,particle size,2.2 to 3.5 nm
C=C(NC(=O)c1csc(-c2nc3c(cc2O)-c2nc(cs2)C(=O)NC(C(C)O)C(=O)NC(=C(C)OC)c2nc(cs2)C(=O)NC2c4nc(cs4)C(=O)NC(COC(=O)c4c5c6c(cccc6n4O)COC(=O)C(OC4CC(C)(O)C(N(C)C)C(C)O4)C2OC5)c2nc-3cs2)n1)C(N)=O (stereo not drawn),,,"female cynomolgus monkey, plasma","intravenous, 9 mg/kg, single dose, infusion",,half-life,374 min
CCCC[C@H]1C(=O)N(C)[C@@H](CCCC)C(=O)N[C@@H](CCCCNC(=S)Nc2ccc(CN3CCN(CC(=O)O)CCN(CC(=O)O)CC3)cc2)C(=O)N[C@H](C(=O)NCC(N)=O)CSCC(=O)N[C@@H](Cc2ccc(O)cc2)C(=O)N(C)[C@@H](C)C(=O)N[C@@H](CC(N)=O)C(=O)N2CCC[C@H]2C(=O)N[C@@H](Cc2cnc[nH]2)C(=O)N[C@@H](CCC(=O)O)C(=O)N2C[C@H](O)C[C@H]2C(=O)N[C@@H](Cc2c[nH]c3ccccc23)C(=O)N[C@@H](CO)C(=O)N[C@@H](Cc2cn(CC(=O)O)c3ccccc23)C(=O)N1C [fluorine-18 labelled],,"PET, measured: PD-L1","huCD34 mouse A-375 xenograft, tumour periphery beyond 3 mm",pretreatment,,SUV,0.84 ± 0.28 SUV
COCC1CN(C2CCN(c3cc(OC)c(Nc4ncc(Br)c(Nc5ccc6c(c5P(C)(C)=O)OCCO6)n4)cc3C)CC2)C1,,first-in-human trial,human,"oral, 240 mg once daily",treatment-related leading to permanent discontinuation,adverse events,0%
C=C[C@]1(C)C[C@@H](OC(=O)CSc2ccc(NC(=O)c3ccco3)cc2)[C@]2(C)[C@H](C)CC[C@]3(CCC(=O)[C@H]32)[C@@H](C)[C@@H]1O,,,"Mycoplasma gallisepticum-infected chickens, plasma","intramuscular, 40 mg/kg, 6 h",,plasma concentration,113 ng/mL and 145 ng/mL and 91 ng/mL and 138 ng/mL and 311 ng/mL and 339 ng/mL and 135 ng/mL and 106 ng/mL
CCN(CC)c1ccc2c(c1)O[B-]1(c3ccccc3)OC(=O)C(c3ccccc3)=N[N+]1=C2C (stereo not drawn),,UV/vis decay,aqueous buffer,,,hydrolysis activation energy,21.9 kcal/mol
Cc1nc(N)nc2c1C(=O)N[C@@H](c1ccc(F)cc1-c1cccc(O[11CH3])n1)C2,,ex vivo biodistribution,"mice, MDA-MB-231 subcutaneous xenograft, brain","60 min post-injection, baseline, vehicle pre-treatment",,SUV,1.9 ± 0.4
Cc1cc(-c2ccc(C(=O)[C@@H]3CCCC[C@H]3C(=O)Nc3cnn4c3C(=O)NCC4)cc2)[nH]n1,,,"human, urine and faeces","oral, 200 mg, mean of six subjects",baseline: dose,cumulative recovery of radioactivity,85.2%
CCC1=[N+]2N=C(/C=C/c3ccccc3)C(=O)O[B-]2(c2ccccc2)Oc2cc(N(CC)CC)ccc21 (stereo not drawn),,UV/vis decay,aqueous buffer,,,hydrolysis activation energy,24.4 kcal/mol
CN1CCC[C@]1(C)/C=C/S(=O)(=O)NC(=O)Nc1c2c(cc3c1CC(O)C3)CCC2 (stereo partly drawn),,,"human, plasma","oral, 50 mg twice daily of parent drug, day 14, metabolite of dosed drug",,AUC(0-24),104 µg·h/mL
Cc1nn(-c2nc3c(F)cc(F)cc3s2)c(O)c1C(c1ccc(C(F)(F)F)cc1)c1c(C)nn(-c2nc3c(F)cc(F)cc3s2)c1O,,,ICR mouse,"oral, 50 mg/kg, 8.00 h",,plasma concentration,10700 ng/mL and 11500 ng/mL and 12300 ng/mL
N#Cc1ccnc(N2C(=O)CC[C@H]2C(=O)N(c2cc(F)cc(F)c2)[C@H](C(=O)NC2CC(F)(F)C2)c2ccccc2Cl)c1 (stereo in doubt),,,"cynomolgus monkey, plasma","oral, 10 mg/kg",,bioavailability,43%
O=C(O)CCCOc1ccc([18F])cc1-c1cc(-c2ccccc2C(F)(F)F)n(-c2ccccc2)n1,,OLINDA/EXM from mouse data,"human adults, thymus",,,absorbed dose,10.2 µGy/MBq
CCCCN1C(=O)c2cccc3c(NCCCCN4CCOCC4)ccc(c23)C1=O,,,DMSO,,,fluorescence quantum yield,0.37
N[C@@H](CC(=O)O)C(=O)OC(C(=O)O)c1ccc(Br)cc1[N+](=O)[O-] (mixture of isomers),,"1H NMR, dark",50 mM sodium phosphate,"concentration not given, pH 9.0, room temperature, 12.5% DMSO-d6",,"hydrolysis half-life, A isomer",1030 ± 36 min
CC(=O)N([O-])CCCCCNC(=O)CCC(=O)N([O-])CCCCCNC(=O)CCC(=O)N([O-])CCCCCN.[89Zr+4],,radio-TLC,aqueous buffer,"7 d, pH 7.2, 37 °C, 89Zr-labelled complex, with: NiCl2 10-fold excess",,intact complex,98.6 ± 1.6%
CC(C)C[C@H](NC(=O)[C@@H](CCCCNC(=O)[C@@H](Cc1ccccc1)NC(=O)CCCCCCCNC(=O)CN1CCN(CC(=O)O)CCN(CC(=O)O)CCN(CC(=O)O)CC1)NC(=O)[C@H](Cc1ccc(O)cc1)NC(=O)[C@H](CO)NC(=O)[C@H](Cc1c[nH]c2ccccc12)NC(=O)[C@H](Cc1c[nH]cn1)NC(=O)[C@@H]1CCC(=O)N1)C(=O)N[C@@H](CCCNC(=N)N)C(=O)N1CCC[C@H]1C(=O)NCC(N)=O [indium-111 labelled],,,"male athymic nude mice, DU-145 prostate cancer xenograft, brain","intravenous, dose not given, 1 h, with: unlabeled blocking peptide 10 µg",,tissue uptake,0.09 ± 0.07 %ID/g
CC[C@H](C)[C@H](NC(=O)C[C@H](NC(=O)CN1CCN2CCN(CC1)CC(=O)[O][Al]([18F])[O]C(=O)C2)C(=O)O)C(=O)N[C@H]1CCc2cccc3c2N(C1=O)[C@H](C(=O)NCc1cn[nH]n1)C3,,PET,"C57BL/6J mice with MC-38 tumour, PBS-treated",30 min,,maximum tumour uptake,0.82 ± 0.09 %ID/g
C/C(N)=N/C(=N\S(=O)(=O)c1ccc(C(F)(F)F)cc1)N1C[C@H](c2ccccc2)C(c2ccc(Cl)cc2)=N1,,,"Beagle dog, plasma","oral, 24 mg/kg",,oral bioavailability,25.7%
Cc1ncsc1-c1ccc(C(C)NC(=O)C2CC(O)CN2C(=O)C(NC(=O)CCCCCCCCCCN2CCCC(Nc3ncc(Cl)c(Nc4ccccc4S(=O)(=O)C(C)C)n3)C2)C(C)(C)C)cc1 (stereo not drawn),22Rv1,"RNA-seq, measured: SLC5A10 mRNA",,concentration not given,baseline: DMSO,log2 fold change,-2.06
COc1ccc(Nc2nc(Nc3ccc(OCCOCCOCC[18F])cc3)ncc2Br)cc1,,,"ICR mice, S180 tumour","intravenous, 370 kBq, 15 min",baseline: tumour over bone,uptake ratio,1.09
CC[C@H](C)[C@H](NC(=O)[C@H](CCC(N)=O)NC(=O)[C@@H](NC(=O)[C@@H]1CCCN1[C@@H]1CN(C(=O)[C@H](CCCCN)NC(=O)[C@H](CC(N)=O)NC(=O)[C@@H](NC(=O)[C@@H](NC(=O)[C@H](CCC(N)=O)NC(=O)[C@@H](N)C(C)C)[C@@H](C)CC)[C@@H](C)CC)CC[C@H]1NS(=O)(=O)c1ccc(C)cc1)C(C)C)C(=O)N[C@H](C(=O)N[C@@H](Cc1ccc(O)cc1)C(=O)N[C@@H](CCCCN)C(N)=O)C(C)C,,CD spectroscopy,20 mM phosphate buffer,"125 µM, 20 °C",,beta-sheet content,32.4%
O=C(Nc1cnccc1-c1ccc([18F])nc1)c1ccnc(NC(=O)C2CC2)c1,,,"mice, transgenic, GSK-3β, early-stage, heart","intravenous, dose not given, 120 min, with: tariquidar 15 mg/kg i.v. pre-dose",,SUV,0.166
Cc1noc(C)c1Cn1cc(N2C(=O)CN(Cc3cccc(O[C@@H]4O[C@H](C(=O)O)[C@@H](O)[C@H](O)[C@H]4O)c3)C2=O)cn1,,,"rat Sprague-Dawley male, plasma","oral, 100 mg/kg of parent drug, 4 h",,plasma concentration,31.8 ± 16.8 ng/mL
C=CS(=O)(=O)c1ccc(OC)c(-c2c[nH]c3ncc(-c4cncc(C(=O)N(C)C)c4)cc23)c1,,HPLC,,"50 µM, 37 °C, no lysine, followed to 24 h",,hydrolytic half-life,> 1440 min

# Excerpt of the above:
SMILES,target or system,assay,test system,conditions,scale,endpoint,result
COc1cc(N2CCN(C(=O)C3CCCN3)CC2)ccc1Nc1ncc(Cl)c(Nc2ccccc2P(C)(C)=O)n1 (stereo not drawn),,,"nude mice, NCI-H3122 xenograft","intraperitoneal, 10 mg/kg every other day, day 1",,body weight,23.9 g and 26.6 g and 22.8 g and 22.5 g and 22.1 g
O=C(Nc1cnccc1-c1ccc([18F])cc1)c1ccnc(NC(=O)C2CC2)c1,,,"mice, transgenic, GSK-3β, early-stage, bone","intravenous, dose not given, 120 min",,SUV,1.5
C=CC(=O)Nc1cc(Nc2nccc(-c3cn(C)c4ccccc34)n2)c(OC)cc1N(C)CCNC,,,"human, dried blood spots","72 h, on ice, high QC level",,remaining compound,70%
O=C(c1cccc(N2Cc3cn(Cc4ccc(F)cc4)nc3C2)c1)N1CCCCC1,,metabolic stability,"human, liver microsomes",,,half-life,18 min
[123I]c1ccc2nc(-c3ccc(-n4ccnn4)nc3)cn2c1,,,"male Wistar rat, bone","intravenous, 4 MBq, 5 min",,tracer uptake,0.503 %ID/g
